Measured values collected from several papers.
Compare with care: the assays were run in different laboratories. Numbers after ± are the reported error.
Chain of UniProt P09619 (whole entry, looked up): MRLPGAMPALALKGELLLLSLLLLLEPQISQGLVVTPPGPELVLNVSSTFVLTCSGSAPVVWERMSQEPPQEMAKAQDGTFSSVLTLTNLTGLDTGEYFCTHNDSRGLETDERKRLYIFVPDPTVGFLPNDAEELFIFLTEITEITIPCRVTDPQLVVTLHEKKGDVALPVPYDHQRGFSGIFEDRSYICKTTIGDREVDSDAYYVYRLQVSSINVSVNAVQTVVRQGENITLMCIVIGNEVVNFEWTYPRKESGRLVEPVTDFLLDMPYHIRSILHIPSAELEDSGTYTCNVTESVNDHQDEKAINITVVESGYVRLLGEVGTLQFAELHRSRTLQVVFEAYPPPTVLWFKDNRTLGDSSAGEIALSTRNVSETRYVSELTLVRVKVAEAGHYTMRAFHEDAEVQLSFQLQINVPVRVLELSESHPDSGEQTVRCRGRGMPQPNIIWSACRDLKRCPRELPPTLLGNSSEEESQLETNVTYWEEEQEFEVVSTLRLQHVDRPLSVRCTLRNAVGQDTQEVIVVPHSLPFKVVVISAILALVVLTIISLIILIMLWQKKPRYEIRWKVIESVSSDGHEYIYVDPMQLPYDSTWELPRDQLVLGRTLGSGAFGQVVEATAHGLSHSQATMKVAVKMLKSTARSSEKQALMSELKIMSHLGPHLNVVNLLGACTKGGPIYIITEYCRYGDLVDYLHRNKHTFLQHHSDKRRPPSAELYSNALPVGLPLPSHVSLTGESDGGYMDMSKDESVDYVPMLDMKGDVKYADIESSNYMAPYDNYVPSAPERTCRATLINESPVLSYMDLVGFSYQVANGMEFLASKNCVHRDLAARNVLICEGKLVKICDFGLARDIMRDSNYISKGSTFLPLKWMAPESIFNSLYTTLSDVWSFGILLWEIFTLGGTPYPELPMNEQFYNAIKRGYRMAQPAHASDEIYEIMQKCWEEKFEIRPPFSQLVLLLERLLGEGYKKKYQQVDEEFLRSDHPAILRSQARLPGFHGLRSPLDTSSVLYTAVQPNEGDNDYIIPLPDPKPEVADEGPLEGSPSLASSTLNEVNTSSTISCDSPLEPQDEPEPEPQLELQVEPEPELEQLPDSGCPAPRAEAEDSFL
Chain of UniProt P30411 (whole entry, looked up): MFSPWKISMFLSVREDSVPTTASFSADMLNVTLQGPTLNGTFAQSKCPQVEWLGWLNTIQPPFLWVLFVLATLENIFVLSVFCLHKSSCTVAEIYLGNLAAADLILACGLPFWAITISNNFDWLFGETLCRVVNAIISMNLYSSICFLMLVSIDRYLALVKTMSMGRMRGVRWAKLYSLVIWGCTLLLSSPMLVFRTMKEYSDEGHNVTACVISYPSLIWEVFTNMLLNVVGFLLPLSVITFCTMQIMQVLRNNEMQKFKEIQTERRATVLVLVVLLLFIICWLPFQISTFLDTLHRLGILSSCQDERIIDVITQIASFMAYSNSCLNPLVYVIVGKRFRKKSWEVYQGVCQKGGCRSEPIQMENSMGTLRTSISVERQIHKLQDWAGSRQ
Chain of UniProt P08631 (whole entry, looked up): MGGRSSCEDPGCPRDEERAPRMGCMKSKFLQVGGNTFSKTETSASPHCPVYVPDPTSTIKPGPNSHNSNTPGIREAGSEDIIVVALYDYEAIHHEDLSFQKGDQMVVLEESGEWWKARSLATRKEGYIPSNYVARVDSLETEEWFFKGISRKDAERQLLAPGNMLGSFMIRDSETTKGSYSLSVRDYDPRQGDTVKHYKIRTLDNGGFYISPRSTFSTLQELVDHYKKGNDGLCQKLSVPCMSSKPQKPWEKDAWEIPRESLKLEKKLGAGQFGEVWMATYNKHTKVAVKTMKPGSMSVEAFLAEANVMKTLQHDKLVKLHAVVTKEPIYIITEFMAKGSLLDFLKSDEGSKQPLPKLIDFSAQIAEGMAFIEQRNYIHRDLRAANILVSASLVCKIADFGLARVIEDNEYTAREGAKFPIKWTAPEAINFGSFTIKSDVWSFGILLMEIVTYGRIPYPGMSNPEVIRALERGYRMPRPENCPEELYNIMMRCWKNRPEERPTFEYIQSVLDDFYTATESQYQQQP
Chain of UniProt P21554 (whole entry, unmodified, looked up): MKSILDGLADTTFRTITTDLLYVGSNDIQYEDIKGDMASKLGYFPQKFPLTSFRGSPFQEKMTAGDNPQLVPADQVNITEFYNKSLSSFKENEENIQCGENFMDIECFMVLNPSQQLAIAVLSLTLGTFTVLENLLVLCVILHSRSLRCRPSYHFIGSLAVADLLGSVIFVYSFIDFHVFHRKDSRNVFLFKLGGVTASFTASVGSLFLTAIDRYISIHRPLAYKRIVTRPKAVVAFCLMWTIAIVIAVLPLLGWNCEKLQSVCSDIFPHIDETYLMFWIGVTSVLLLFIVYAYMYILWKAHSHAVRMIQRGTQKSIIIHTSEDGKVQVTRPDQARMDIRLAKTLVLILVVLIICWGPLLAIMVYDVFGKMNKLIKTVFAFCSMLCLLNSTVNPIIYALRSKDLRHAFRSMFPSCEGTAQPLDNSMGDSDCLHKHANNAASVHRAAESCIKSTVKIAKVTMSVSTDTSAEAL
Chain of UniProt Q9BVS4 (whole entry, looked up): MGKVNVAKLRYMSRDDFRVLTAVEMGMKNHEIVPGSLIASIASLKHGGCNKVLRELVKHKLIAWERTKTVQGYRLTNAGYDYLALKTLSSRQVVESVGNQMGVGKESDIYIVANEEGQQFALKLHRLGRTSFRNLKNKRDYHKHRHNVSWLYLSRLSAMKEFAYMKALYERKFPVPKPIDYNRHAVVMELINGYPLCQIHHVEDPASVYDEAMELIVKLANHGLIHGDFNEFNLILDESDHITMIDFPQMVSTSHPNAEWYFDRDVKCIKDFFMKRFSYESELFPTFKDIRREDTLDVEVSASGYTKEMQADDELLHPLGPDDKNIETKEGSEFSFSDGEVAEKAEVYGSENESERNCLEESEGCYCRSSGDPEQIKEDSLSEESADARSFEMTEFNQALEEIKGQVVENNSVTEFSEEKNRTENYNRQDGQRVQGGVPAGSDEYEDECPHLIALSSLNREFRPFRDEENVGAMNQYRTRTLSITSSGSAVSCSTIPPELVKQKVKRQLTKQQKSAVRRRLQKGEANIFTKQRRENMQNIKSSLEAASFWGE
Chain of UniProt Q61206 (whole entry, looked up): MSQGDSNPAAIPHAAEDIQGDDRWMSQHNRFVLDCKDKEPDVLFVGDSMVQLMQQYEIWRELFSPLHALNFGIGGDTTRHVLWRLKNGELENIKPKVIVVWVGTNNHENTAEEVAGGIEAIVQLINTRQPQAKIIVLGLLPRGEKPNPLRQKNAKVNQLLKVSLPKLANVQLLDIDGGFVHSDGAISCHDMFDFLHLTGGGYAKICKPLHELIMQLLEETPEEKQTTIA
Chain of UniProt P12821 (whole entry, looked up): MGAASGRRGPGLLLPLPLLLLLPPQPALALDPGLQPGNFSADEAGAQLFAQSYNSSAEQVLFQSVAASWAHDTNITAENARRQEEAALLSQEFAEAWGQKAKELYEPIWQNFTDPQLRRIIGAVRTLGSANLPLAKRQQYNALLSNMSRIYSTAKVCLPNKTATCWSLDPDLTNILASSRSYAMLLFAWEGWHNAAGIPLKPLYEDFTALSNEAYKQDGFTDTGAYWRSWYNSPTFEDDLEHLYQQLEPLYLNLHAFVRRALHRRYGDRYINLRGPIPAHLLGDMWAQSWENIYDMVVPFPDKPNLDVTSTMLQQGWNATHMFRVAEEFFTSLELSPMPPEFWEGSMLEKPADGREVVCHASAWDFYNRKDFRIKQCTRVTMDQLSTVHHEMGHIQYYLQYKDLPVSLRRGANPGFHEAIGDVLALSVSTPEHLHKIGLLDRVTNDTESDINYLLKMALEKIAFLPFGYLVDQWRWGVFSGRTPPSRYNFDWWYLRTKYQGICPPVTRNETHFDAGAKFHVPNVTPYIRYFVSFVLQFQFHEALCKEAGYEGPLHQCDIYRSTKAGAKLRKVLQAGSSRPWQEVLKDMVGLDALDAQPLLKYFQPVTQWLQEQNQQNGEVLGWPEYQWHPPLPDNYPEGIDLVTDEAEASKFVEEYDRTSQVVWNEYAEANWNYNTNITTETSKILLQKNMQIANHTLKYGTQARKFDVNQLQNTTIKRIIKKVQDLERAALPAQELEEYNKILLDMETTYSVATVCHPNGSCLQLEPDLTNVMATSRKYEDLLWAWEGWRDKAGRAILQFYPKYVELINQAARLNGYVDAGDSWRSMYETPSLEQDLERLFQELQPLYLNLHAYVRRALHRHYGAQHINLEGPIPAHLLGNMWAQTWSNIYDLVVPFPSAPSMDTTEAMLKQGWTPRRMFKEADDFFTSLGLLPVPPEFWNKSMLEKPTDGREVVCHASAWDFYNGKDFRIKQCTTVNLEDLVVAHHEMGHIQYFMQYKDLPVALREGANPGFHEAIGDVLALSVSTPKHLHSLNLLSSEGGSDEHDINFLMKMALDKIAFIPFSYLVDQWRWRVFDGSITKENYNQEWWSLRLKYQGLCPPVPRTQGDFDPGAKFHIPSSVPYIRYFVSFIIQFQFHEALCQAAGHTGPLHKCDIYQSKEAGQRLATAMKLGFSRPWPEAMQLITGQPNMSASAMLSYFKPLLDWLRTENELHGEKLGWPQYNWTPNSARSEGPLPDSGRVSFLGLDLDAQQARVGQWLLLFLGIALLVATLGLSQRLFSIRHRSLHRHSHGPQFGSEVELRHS

| SMILES | target or system | assay | system | setting | scale | endpoint | value |
| --- | --- | --- | --- | --- | --- | --- | --- |
| CS(C)(=O)=Nc1ccc(-c2ccc(-c3nc4cc(O[C@@H]5CO[C@H]6[C@@H]5OC[C@H]6O)[nH]c4cc3F)cc2)cc1 | ACE (Homo sapiens, UniProt P12821) | enzyme activity, inhibitor |  | 10 µM |  | inhibition | 88% |
| CN(C)[C@H]1C[C@@]23CC[C@@]4(O2)C(=CC[C@]2(C)[C@@H](c5ccc6ccncc6c5)CC[C@H]24)C=C3[C@@H](O)[C@@H]1O | HCK (Homo sapiens, UniProt P08631) | ATP probe labelling, inhibitor, KiNativ profiling |  | 0.1 µM |  | inhibition | -6.1% |
| Nc1ccc(/C=C/C(=O)N2CCc3c(oc4c(-c5ccc(F)cc5)cc(-c5ccc(C(=O)N6CCC(F)(F)CC6)cn5)cc34)C2)cn1 | RIOK2 (Homo sapiens, UniProt Q9BVS4) | binding, competition with immobilised ligand |  | 1 µM |  | remaining binding | 93% |
| CCCC1COC(Cn2cncn2)(c2ccc(Cl)cc2Cl)O1 (stereo not drawn) | Trypanosoma cruzi | reporter mRNA translation, inhibitor, item: capped polyadenylated Renilla luciferase mRNA | cell-free extract | concentration not given | reference: control RNA | relative translation | 103% |
| O=C1NC(=O)c2c1c1cc(F)c[n+]3c1c1c2c2cc(O)ccc2[n]1[Ru-4]312([N]=C=S)[S+]3CC[S+]1CC[S+]2CC3 (stereo not drawn) | ABL1 (Homo sapiens, UniProt P00519, M351T) | enzyme activity |  | 100 nM, human enzyme, with: 10 µM ATP | reference: untreated | remaining activity | 95% |
| CC(C)C[C@H](NC(=O)[C@H](CC(C)C)NC(=O)[C@H](CCCCN)NC(=O)[C@H](Cc1ccccc1)NC(=O)[C@@H](NC(=O)[C@H](CCCNC(=N)N)NC(=O)[C@@H](N)CCCCN)C(C)C)C(=O)N[C@@H](CCCCN)C(=O)N[C@@H](CCCNC(=N)N)C(=O)N[C@@H](Cc1ccc(O)cc1)C(=O)N[C@@H](Cc1c[nH]c2ccccc12)C(=O)N[C@@H](CCCNC(=N)N)C(=O)N[C@@H](CCC(N)=O)C(=O)N[C@@H](CC(C)C)C(=O)N[C@@H](CCCCN)C(=O)N[C@@H](CCCCN)C(=O)N1CCC[C@H]1C(=O)N[C@H](C(=O)N[C@@H](CCCNC(=N)N)C(=O)NCCOCCOCC(=O)O)C(C)C | Staphylococcus aureus | gel retardation | genomic DNA |  |  | complete DNA binding concentration | ≥ 16 µM |
| Cc1sc2c(c1C)C(c1ccc(Cl)cc1)=NC(CC(=O)OC(C)(C)C)c1nnc(C)n1-2 (stereo not drawn) | BDKRB2 (Homo sapiens, UniProt P30411) | ligand displacement, radioligand |  | 1 µM |  | inhibition | -3% |
| O=C1NC2(CC2)COc2ncc(F)cc2[C@H]2COCCN2c2ccn3ncc1c3n2 |  |  | Sprague-Dawley rat, male, serum | oral, 2.5 mg/kg/day, 4 weeks daily, end of treatment |  | alanine aminotransferase activity | 29.6 ± 2.5 U/L |
| CC(C)[C@H]1NC(=O)C[C@H]2/C=C/CCSSC[C@@H](NC1=O)C(=O)N[C@H](Cc1cccc3ccccc13)C(=O)NCC(=O)O2 | PDGFRB (Homo sapiens, UniProt P09619) | enzyme activity, inhibitor |  | 10 µM |  | inhibition | 4% |
| CN(C)CC#CCC(O)(c1ccccc1)C1CCCC1.Cl (stereo not drawn) | Trypanosoma cruzi | reporter mRNA translation, inhibitor, item: capped polyadenylated Renilla luciferase mRNA | cell-free extract | concentration not given | reference: control RNA | relative translation | 102% |
| Cc1ccc2c(C(C[N+](=O)[O-])c3cccs3)c(-c3ccccc3)[nH]c2c1 (stereo not drawn) | CNR1 (Homo sapiens, UniProt P21554, L165A) | β-arrestin recruitment, agonist, luciferase |  |  |  | Emax | 64.5% |
| CC(C)CC(O)(CC(C)C)c1cn(C(=O)N2CCCC2)nn1 | Platelet-activating factor acetylhydrolase IB subunit alpha2 (Mus musculus, UniProt Q61206) | probe labelling, inhibitor, competitive ABPP-SILAC, item: Pafah1b2 | mouse T cells | concentration not given, 4 h, protein level | reference: treated over DMSO cells, lower = stronger inhibition | median SILAC activity ratio | 1.24 |

For quick reference, copied from above:
| SMILES | target or system | assay | system | setting | scale | endpoint | value |
| --- | --- | --- | --- | --- | --- | --- | --- |
| Cc1sc2c(c1C)C(c1ccc(Cl)cc1)=NC(CC(=O)OC(C)(C)C)c1nnc(C)n1-2 (stereo not drawn) | BDKRB2 (Homo sapiens, UniProt P30411) | ligand displacement, radioligand |  | 1 µM |  | inhibition | -3% |
| O=C1NC2(CC2)COc2ncc(F)cc2[C@H]2COCCN2c2ccn3ncc1c3n2 |  |  | Sprague-Dawley rat, male, serum | oral, 2.5 mg/kg/day, 4 weeks daily, end of treatment |  | alanine aminotransferase activity | 29.6 ± 2.5 U/L |
